Assay results gathered from unrelated publications.
Each numbered part is a random draw from the data of one study; scales do not carry over between parts.

Sample 1 — technique: RNA Bind-n-Seq; form: RNA; medium: in vitro; concentration: 200 nM; notes: whole 134-nt RNA, ends assumed; together with: 150 mM LiCl; reference: input library; reading: higher = stronger binding; quantity: log2 enrichment; all molecules: 7-deaza-guanosine replaces G
Target: Ras GTPase-activating protein-binding protein 1, full length (G3BP1, Homo sapiens, UniProt Q13283)
UniProt Q13283, sequence (whole entry, looked up): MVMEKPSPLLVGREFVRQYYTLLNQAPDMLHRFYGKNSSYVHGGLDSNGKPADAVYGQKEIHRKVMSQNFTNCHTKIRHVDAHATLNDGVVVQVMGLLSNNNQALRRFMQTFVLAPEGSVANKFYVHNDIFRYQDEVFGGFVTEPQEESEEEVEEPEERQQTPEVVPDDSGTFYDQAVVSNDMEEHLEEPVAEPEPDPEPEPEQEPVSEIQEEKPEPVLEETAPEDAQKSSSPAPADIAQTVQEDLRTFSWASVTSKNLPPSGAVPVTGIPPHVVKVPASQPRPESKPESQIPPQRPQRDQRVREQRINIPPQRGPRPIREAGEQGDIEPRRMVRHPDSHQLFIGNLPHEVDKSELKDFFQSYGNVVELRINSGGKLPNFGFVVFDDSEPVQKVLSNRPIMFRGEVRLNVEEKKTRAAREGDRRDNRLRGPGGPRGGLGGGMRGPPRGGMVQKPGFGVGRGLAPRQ
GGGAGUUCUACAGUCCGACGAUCUCAAGUCCUGUGCUACACAUCGUAUGUACCGAAUCGGUUUUUGGUGGUUUUUGGAAAGUAUUAUGUUACGCCGUUCGGAUCUGCACUUCCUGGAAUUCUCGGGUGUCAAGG: -0.0303
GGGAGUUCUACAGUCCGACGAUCCACAGACAACACAAACCCACACAGACACAGAGGGAAGGGGUUGGGAUGGGGACAGGGUGCACAGCAGGGCGGGGUAGGACCCCAGCCCCUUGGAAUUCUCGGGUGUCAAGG: -0.0484
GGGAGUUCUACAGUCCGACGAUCAGUCCUGUGCUACACAUCGUAUGUACCGAAUCGGGAAAAAGGGAAAGGGAAAAAGGGAAAGUAUUAUGUUACGCCGUUCGGAUCUGCACUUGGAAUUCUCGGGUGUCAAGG: -0.551
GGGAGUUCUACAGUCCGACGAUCUCCUCAAGUCCUGUGCUACACAUCGUAUGUACCGAAUCGGAGGUGGUUUGGAAAGUAUUAUGUUACGCCGUUCGGAUCUGCACUUCCAGCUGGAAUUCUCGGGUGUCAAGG: -0.875
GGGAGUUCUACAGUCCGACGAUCCUUUGGUUGACAGGAAGUUCCUUUUCCAGGCAGGUCCCGUUGCCACCUCCUGCUCACUCAGUCCCGGGCUCUGCCGAGUGGUCCUGGGAAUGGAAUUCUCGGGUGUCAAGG: 0.311
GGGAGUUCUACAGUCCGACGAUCUAACUUUAGAGGAGGAUCUGAUGGAUAUGGCAGGGGACGUGGAUUUGGGGAUGGCUAUAAUGGGUAUGGAGGAGGACCUGGAGGUGGCAAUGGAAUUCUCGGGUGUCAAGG: -0.112
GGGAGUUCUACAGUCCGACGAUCGCAGGAAGUAAAAACAAAUGGAAAUGCUUCGGAUAGUGGCAGGGGUGGGGGGUGCUAAGGAAAGGGUGGGAUGGGAGUGGGUAAAGAGUUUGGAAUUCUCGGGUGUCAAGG: -0.104
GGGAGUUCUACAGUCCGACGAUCUCCUGUGCUACACAUCGUAUGUACCGAAUCGGUUUUUUGGGGUUUUUUGGUUUUUUGGGGAAAGUAUUAUGUUACGCCGUUCGGAUCUGCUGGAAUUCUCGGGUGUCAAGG: -0.0999
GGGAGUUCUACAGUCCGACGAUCCACAGACAACACGCACCCACACAGACACAGAGGGAAGGGGUUGGGAUGGGGACAGGGUGGACAGCAGGGCGGGGUAGGACCCCAGCCCCUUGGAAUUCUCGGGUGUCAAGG: -1.73
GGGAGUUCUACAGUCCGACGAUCCAAGUCCUGUGCUACACAUCGUAUGUACCGAAUCGGGGAAAGGGGAAAGGGAAAGGAAAGUAUUAUGUUACGCCGUUCGGAUCUGCACUUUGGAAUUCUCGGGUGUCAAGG: -0.37
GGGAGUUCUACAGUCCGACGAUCAGUCCUGUGCUACACAUCGUAUGUACCGAAUCGGGGAGGGGAAAAAAAGGGGUGGGGAAAGUAUUAUGUUACGCCGUUCGGAUCUGCACUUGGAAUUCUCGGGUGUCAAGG: 0.205

Sample 2 — technique: RNA Bind-n-Seq; form: RNA; medium: in vitro; concentration: 365 nM; reference: no-protein control; reading: higher = stronger binding; quantity: RBNS enrichment (R)
Target: RNA binding protein fox-1 homolog 2, RRM domain, GST-SBP tag (RBFOX2, Homo sapiens, UniProt O43251-10, residues 100-194)
Notes: natural RNA segment, single round, ends assumed
Residues (chain): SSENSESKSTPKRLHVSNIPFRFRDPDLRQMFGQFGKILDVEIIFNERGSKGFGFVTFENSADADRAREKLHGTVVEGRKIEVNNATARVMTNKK
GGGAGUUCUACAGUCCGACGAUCGAACUGAAUAAACCAUUAACUGGCCAUCCUGGUUUUGCAGAGAUCAGGUUGUUGACAGUUCCUGGUUGACCCACAGCUACCCAUGUCAGUUAUCUCCACUAACAUAUCCAUGGAAUUCUCGGGUGCCAA: 0.233
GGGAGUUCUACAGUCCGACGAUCUUCAUGAUGACAACUUGAUUUAUGCAUGAAUAUCAACAGUAUUUCCAUAUAGUAAAAUAACAUUUCUGCCCAGGAUAAUAGUCACAGUUUUCCAGGGAGGGAAUGAUAUAUGGAAUUCUCGGGUGCCAA: 0.796
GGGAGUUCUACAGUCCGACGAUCUUAAAAACAUGAUGGGCUGUUUUAAGACCAGAGUGGAAAUUCAUGAGAGGAACUAUACUACCAAAAGAGCCCAAAUGACCAAAUCCAUGGAUAAUUGCUUCACAGCCUUGUGGAAUUCUCGGGUGCCAA: 0.432
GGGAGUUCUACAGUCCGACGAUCAUUUCCCUAUAACCCUAUAAUUUUGUGAUGUCAUGUGCUGUACAGUUUUAAUGUGGUGAGCAGCCUAAGAACUUAAAGGUGUACGGUAUUUUGUUUAUAAAGAUGUUCAGUGGAAUUCUCGGGUGCCAA: 0.637
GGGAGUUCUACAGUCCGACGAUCUUCAUCCUCCUCCUUUUUUAAAAGUCAACGAGAGCCUUCGCUGACUCCACCGAAGAGGUGCGCCACUGGGAGCCACCCCAGCGCCAGGCGCCCGUCCAGGGACACACACAUGGAAUUCUCGGGUGCCAA: 0.24
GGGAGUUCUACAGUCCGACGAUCCCUGAAAGUAUCUGUAAGCAAUACUAGUAGGUAAGAUUUCACUGUGUGUACACAUACACAUUUGAGAUUGUAUGAGAACAUAUAAUCCAUAUGAUAUGUUGUACAUUUUAUGGAAUUCUCGGGUGCCAA: 0.277
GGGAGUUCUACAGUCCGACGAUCAAUCUAUUCCUGCCACCACUGGGCAAACAGAAGAAUUUUUCUGUCUUUGGAGAGUAUUUUAGAAACUCCAAUGAAAGACACUGUUUCUCCUGUUGGCUCACAGGGCUGAAUGGAAUUCUCGGGUGCCAA: 0.409
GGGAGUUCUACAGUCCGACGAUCGUGGCCAAGCGUCCUUACAGCCAGUGCACAGGACUUUCAGAGACCAAGGCCAGGGUCUGCUGCACUGCUGUUCUGAUAAUAGGUUCUUAACAUUGUAUGUAUAUGUGUUUUGGAAUUCUCGGGUGCCAA: 1.21
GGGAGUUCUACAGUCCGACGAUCACUGUAGAUUUUUACUGAUUGUCCUGGAUGAAUAGACUGUGCUUUUUCUUUUUCUCUCCCUUCCUUCUUGGUUUCCCAUAGUAUAAUAAGCAUGCAUACUUUAACUUCUAUGGAAUUCUCGGGUGCCAA: 9.92

Sample 3 — technique: universal PBM; form: double-stranded DNA, one strand shown; medium: in vitro; concentration: not given; reading: higher = stronger binding; quantity: E-score
Target: Sal-like protein 4, full length isoform B (SALL4, Homo sapiens, UniProt Q9UJQ4-2, residues 1-616)
Notes: 8-mer, flanks averaged, mean of replicates
ATGATCAC: 0.198
GCGTGGCC: -0.332
GCAAAGCA: -0.139
CGCCGCGC: -0.351
CCGCCTCA: -0.295
ATCTCCTA: 0.0676
ACCAACTG: -0.134
GGCGGCAA: -0.257
GGCCGCCA: -0.253
ATTAAAGA: 0.353
AGACAAAG: 0.0496
AACATAGC: 0.163
CTATTCGA: 0.0616
ACCACCAA: -0.163
ACCGTTGA: 0.0109
GGCCAAAA: 0.0261

Sample 4 — technique: RNA Bind-n-Seq; form: RNA; medium: in vitro; concentration: not given; reference: input RNA pool; reading: higher = stronger binding; quantity: bound/input enrichment
Target: RING finger protein unkempt homolog, zinc fingers 1-6, GST-SBP tag (UNK, Homo sapiens, UniProt Q9C0B0, residues 30-357)
Notes: RNA with constant flanks, human and mouse sites, ends assumed
Construct (chain): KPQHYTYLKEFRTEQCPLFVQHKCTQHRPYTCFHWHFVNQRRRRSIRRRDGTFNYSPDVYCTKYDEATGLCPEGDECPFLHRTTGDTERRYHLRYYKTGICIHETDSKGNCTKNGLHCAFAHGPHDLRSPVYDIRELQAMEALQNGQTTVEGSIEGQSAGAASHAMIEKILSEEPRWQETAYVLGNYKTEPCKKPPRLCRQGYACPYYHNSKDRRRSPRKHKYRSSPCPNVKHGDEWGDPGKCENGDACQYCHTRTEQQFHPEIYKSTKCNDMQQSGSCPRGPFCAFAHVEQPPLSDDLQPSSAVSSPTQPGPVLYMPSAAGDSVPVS
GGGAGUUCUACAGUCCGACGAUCUAACAAUAUAUGAUAUAUAAACCUUAAAUGAAAAAAAUGAUCUAUUGCAGAUAUUUGAUGUAGUUUUCUUUUUUAAAUUAAUCAGAAACCCCACUUCCAUUGUAUUGUCUGACACAUGCUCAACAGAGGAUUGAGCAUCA: 6.09 ratio
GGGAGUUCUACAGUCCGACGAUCUGCCUUGGUGAAUUGCUAACGUUAGUUACAUUUGGUUGCUCUAUAGAAUUUGGGCCAGCUGAAUUUAUUCCUCUUCAUCCACUAAUAACGUAUAGACCACAGCAGCUUCCAUUUCAAGAUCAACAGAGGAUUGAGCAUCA: 0.487 ratio
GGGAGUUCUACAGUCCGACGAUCUUGUGCCUCAGCAAACACAGGCGUGGAUAGAUGUUGUCUUUCUUUUGUUUUUCUAGGUGUAUCCCUAGAUGCUGCCCGUGUUUUCAAGAUGGCAGGGGUGGGAAGGGAGAGAAAGGAAGACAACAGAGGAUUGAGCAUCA: 0.204 ratio
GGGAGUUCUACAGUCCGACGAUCUUAAAAGAAAUUCAAGCCAUGAGUCAGUGCAGCCAUCCCAACGUAGUGACCUAUUACACCUCUUUUGUGGUCAAAGAUGAACUUUGGCUGGUCAUGAAAUUACUAAGUGGAGGUUCAAUGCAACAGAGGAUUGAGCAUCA: 0.214 ratio
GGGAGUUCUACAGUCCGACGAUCGAUGCCCCUCUGGGAAGUUCUUAUAUGUGCAACAAAGAGCAGGUGCUUUCUGUGUCUAGAGCGUUUCAGAUCAACACCUUUAACCUAAAGGUGCAACCUUUUAAUGUGACAAAAGGACAGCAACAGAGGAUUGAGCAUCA: 0.254 ratio
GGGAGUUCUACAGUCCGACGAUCCGGGGGAUGAGUGACAGAGAGCGUCCUAUGCCUUGGAGACUGUCAUGGCAUAAGCUGUGCUAGCACCUCCUCAGGAAAUGAGAUUGAUUUUUACAACAGCCAAUAACGUUUGCACUUUAUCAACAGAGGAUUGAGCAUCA: 0.0979 ratio
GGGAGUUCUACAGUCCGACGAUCAUUCCUGAGGAUAAAAAAGUCAGAGUUCAGAGGACACAGAGCACUUUUGACCCAUUUGAGAAACCAGCUAAUCAAGUAAAGAGGGUGCAUUCUGAGAACAAUGCUUGCAUUAACUUUAAGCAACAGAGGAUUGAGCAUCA: 0.154 ratio
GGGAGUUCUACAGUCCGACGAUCGUAAUCUUCCAAAGGAAGCUCUUUCAGGCCUUGAGGAAGCAUCCUGCUUAUCCCAAAGUAAUAGAAGAGUUUGUUAAUGGCCUGGAGUCCUACACUGAGGACAGUGAGAGUCUCAGGAACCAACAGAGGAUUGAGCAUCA: 0.176 ratio
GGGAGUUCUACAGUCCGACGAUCACAUCUGAGGUGUAUGAUGGUCCCAAAAAUGUAAGAUCUGAUAUUUCUGAUCAAGAGGAAGAUGAAGAAAGUGAAGGAUGUCCAGUGUCUAUUAAUUUGUCUAAAGCUGAAACUCAGGCUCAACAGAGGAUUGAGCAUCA: 0.146 ratio
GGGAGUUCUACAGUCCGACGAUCAGCACCAGUGCGGCCACCUGUACUCGCAGACACUACGAAAGGUUAAUCCUGCCAUACGAAAGAUUUAUUAAGGGAGAAGAAGAUAAGCCUCUGCCGCCAAUCAAACCUCGGAAACAGGAACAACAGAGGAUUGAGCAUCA: 0.263 ratio
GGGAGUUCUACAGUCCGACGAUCGAACGGGGACGCCUGAAAGAAGAGCUAGAAGAAGCCCGGGACAUAGCUAGGCGGCGCUCUUUAGGGAAUAUCAAGUUUAUUGGAGAGUUAUUCAAGUUGAAGAUGUUAACAGAAGCAAUACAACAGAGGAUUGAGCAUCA: 288 ratio

Some of these lines once more (sample 3):
GCAAAGCA: -0.139
GGCGGCAA: -0.257
ATCTCCTA: 0.0676
GCGTGGCC: -0.332
ACCGTTGA: 0.0109
ACCAACTG: -0.134
